Published values collected from several papers.
Numbered parts are unrelated; each lists some results of a single study. “And” joins repeats or separate records; there may be more than shown.

Study 1
Cell line: HEK-293T
Read-out: pseudovirus infection
Technique: FDA-approved drug library counter-screen
Organism: VSV pseudotyped with VSV-G
Concentration: 10 µM
Time: 16 h
Relative to: vehicle-treated
The GFP-positive cells of `CCCC(=O)O[C@]1(C(=O)CO)CC[C@H]2[C@@H]3CCC4=CC(=O)CC[C@]4(C)[C@H]3[C@@H](O)C[C@@]21C` is reported as 81.3%.
The GFP-positive cells of `Nc1cccc2c1C(=O)N(C1CCC(=O)NC1=O)C2=O` (stereo not shown) is reported as 114%.
For `NS(=O)(=O)c1cc2c(cc1Cl)NCNS2(=O)=O`, the GFP-positive cells was 104%.
`C[C@@H]1C[C@H]2[C@@H]3CCC4=CC(=O)C=C[C@]4(C)[C@@]3(Cl)[C@@H](O)C[C@]2(C)[C@@]1(OC(=O)c1ccco1)C(=O)CCl` has a GFP-positive cells of 93.8%.
For `Nc1nc2c(c(=O)[nH]1)N(C=O)C(CNc1ccc(C(=O)N[C@@H](CCC(=O)O)C(=O)O)cc1)CN2` (stereo partly shown), the GFP-positive cells was 95.9%.
For `CN1C[C@H](C(=O)N[C@]2(C)O[C@@]3(O)[C@@H]4CCCN4C(=O)[C@H](Cc4ccccc4)N3C2=O)C[C@@H]2c3cccc4[nH]cc(c34)C[C@H]21`, the GFP-positive cells was 141%.
For `CC(C)NCC(O)c1ccc(NS(C)(=O)=O)cc1` (stereo not shown), the GFP-positive cells was 118%.
`CCCN(CCC)CCc1cccc2c1CC(=O)N2` gave a GFP-positive cells of 114%.
With `OC(CCCN1CCCCC1)(c1ccccc1)c1ccccc1` the GFP-positive cells was 93%.
The GFP-positive cells of `C=CC[N+]1([C@H]2C[C@H]3[C@@H]4CC[C@H]5C[C@H](O)[C@@H](N6CCOCC6)C[C@]5(C)[C@H]4CC[C@]3(C)[C@H]2OC(C)=O)CCCC1` is reported as 98.2%.
For `C[C@]1(O)CC[C@H]2[C@@H]3CCC4=CC(=O)CC[C@]4(C)[C@@]3(F)[C@@H](O)C[C@@]21C`, the GFP-positive cells was 104%.
For `COc1cc([C@@H]2c3cc4c(cc3[C@@H](O[C@@H]3O[C@@H]5CO[C@@H](c6cccs6)O[C@H]5[C@H](O)[C@H]3O)[C@H]3COC(=O)[C@H]23)OCO4)cc(OC)c1O`, the GFP-positive cells was 68.9%.
`CC(C)[C@H](N)C(=O)OCC(CO)OCn1cnc2c(=O)nc(N)[nH]c21` (stereo partly shown) has a GFP-positive cells of 95.3%.
`CC(C)n1c(/C=C/C(O)CC(O)CC(=O)O)c(-c2ccc(F)cc2)c2ccccc21` (stereo not shown) gave a GFP-positive cells of 118%.
`O=C(CCCCC(=O)Nc1c(I)cc(I)c(C(=O)O)c1I)Nc1c(I)cc(I)c(C(=O)O)c1I` gave a GFP-positive cells of 88%.
`Cc1ccc(N(CC2=NCCN2)c2cccc(O)c2)cc1` gave a GFP-positive cells of 104%.
For `CC(C[N+](C)(C)C)OC(N)=O` (stereo not shown), the GFP-positive cells was 130%.
With `C[C@H](CS)C(=O)N1CCC[C@H]1C(=O)O` the GFP-positive cells was 107%.
`CC1CNc2c(cccc2S(=O)(=O)N[C@@H](CCCNC(=N)N)C(=O)N2CC[C@@H](C)C[C@@H]2C(=O)O)C1` (stereo partly shown) has a GFP-positive cells of 99.4%.
`N=C(N)N/N=C/c1c(Cl)cccc1Cl` gave a GFP-positive cells of 111%.
With `NCC1(CC(=O)O)CCCCC1` the GFP-positive cells was 118%.
For `CC(=O)c1ccc(S(=O)(=O)NC(=O)NC2CCCCC2)cc1`, the GFP-positive cells was 86.3%.
`CO[C@H]1/C=C/O[C@@]2(C)Oc3c(C)c(O)c4c(c3C2=O)C2=NC3(CCN(CC(C)C)CC3)NC2=C(NC(=O)/C(C)=C\C=C\[C@H](C)[C@H](O)[C@@H](C)[C@@H](O)[C@@H](C)[C@H](OC(C)=O)[C@@H]1C)C4=O` has a GFP-positive cells of 118%.
The GFP-positive cells of `CCS(=O)(=O)CCn1c([N+](=O)[O-])cnc1C` is reported as 86.2%.
The GFP-positive cells of `NC(=O)c1cn(Cc2c(F)cccc2F)nn1` is reported as 98.6%.

Study 2
Cell line: HEK-293T-ACE2-TMPRSS2
Technique: cell count
Concentration: concentration not given
`CCc1ccc(C2CC(=O)Nc3[nH]nc(-c4cccs4)c32)o1` (stereo not shown) gave a viability of 73%.
`Nc1nc(-c2ccc3c(c2)OCO3)cs1` gave a viability of 100%.
For `Cc1cc(Cl)c2oc(C(=O)N(Cc3c(C)nn(C)c3C)C3CC3)c(C)c2c1`, the viability was 71%.
`COc1ccc(CC(=O)Nc2cccc(-n3cnnn3)c2)cc1` has a viability of 74%.
`ClC(Cl)(Cl)c1nc2ccccc2n2nncc12` has a viability of 65%.
`O=C1NC(c2cccc(F)c2)Nc2ccccc21` (stereo not shown) has a viability of 67%.
`O=C(Cn1ncc(Cl)c(Cl)c1=O)NCCC1=CCCCC1` has a viability of 73%.
With `COc1cccc(Cn2ncc3ccc(C(=O)N4CCCC4)cc32)c1` the viability was 124%.
`Cc1cnc(-c2ccc(C(C)N3CCOCC3)cc2)c(Cl)c1` (stereo not shown) has a viability of 82%.
With `Cc1ccc(-c2noc(C(=O)N3CCCC3)n2)cc1S(=O)(=O)N1CC=C(c2ccccc2)CC1` the viability was 77%.
With `Cc1cnc(C)c(N2CCN(Cc3ccc(C#CC(C)(C)O)s3)CC2)n1` the viability was 94%.
`Cc1cnc(C)c(-c2ccc3c(c2)CC(CNC(=O)CSc2ccccn2)O3)n1` (stereo not shown) gave a viability of 107%.
`Cc1ccoc1C(=O)N1CCCn2nc(C(=O)Nc3ccccc3)cc2C1` gave a viability of 77%.
For `CCn1nc(C)c(CCN(C)S(=O)(=O)c2ccc3c(c2)CC(C)N3C(C)=O)c1C` (stereo not shown), the viability was 77%.
With `CCS(=O)(=O)N1CSC[C@@H]1C(=O)NCCc1csc(-c2ccccc2)n1` the viability was 65%.
For `CCCS(=O)(=O)c1ncc(Cl)c(C(=O)Nc2cccc(C(F)(F)F)c2)n1`, the viability was 66%.
For `COc1ccccc1Nc1c2c(nc3ccc(NC(=O)c4cccnc4)cc13)CCCC2`, the viability was 69%.
`CC1=CC(=O)C(CCOCCC2=CC(=O)C(C)=CC2=O)=CC1=O` has a viability of 78%.
With `CCOC(=O)c1cc(C#N)c2ccccn2c1=O` the viability was 65%.
`CC(=O)OC(C(=O)Oc1ccc2c(c1)C(C)=CC(C)(C)N2)c1ccccc1` (stereo not shown) gave a viability of 77%.
`c1nc(NCCc2ccc3c(c2)OCCO3)c2c3c(sc2n1)CCCC3` gave a viability of 70%.
For `Cn1c(=O)n(C)c2cc(C(=O)CSc3ccc(NC(=O)Nc4ccccc4)cc3)ccc21`, the viability was 77%.
`COc1c(F)c(F)c(CN2CC=C(c3cnn(C)c3)CC2)c(F)c1F` gave a viability of 88%.
`Cc1nc(-c2ccc(C(=O)NCCCc3ccccc3)cc2)cs1` has a viability of 110%.
The viability of `O=C(Cn1ncc(Cl)c(Cl)c1=O)NC(=O)NCc1ccco1` is reported as 99%.

Study 3
Organism: Sarcocystis neurona
Read-out: parasite growth
Concentration: concentration not given
`C[N+]1(C)CCN(c2ccccc2)CC1.[I-]` gave an inhibition of -6.3%.
`COc1ccc(CCN)cc1OC` has an inhibition of -7.7%.
With `CN1CC[C@@H](c2ccc(F)cc2)[C@H](COc2ccc3c(c2)OCO3)C1` the inhibition was -0.2%.
For `COC(=O)N1CCN(C(=O)Cc2ccc(Cl)c(Cl)c2)C(CN2CCCC2)C1.O=C(O)/C=C/C(=O)O` (stereo not shown), the inhibition was -9.1%.
The inhibition of `CCN(CC)CCOC(=O)C(O)(c1ccccc1)c1ccccc1.Cl` is reported as -4.8%.
With `COc1cc(N)c(Cl)cc1C(=O)NC1CN2CCC1CC2.Cl` (stereo not shown) the inhibition was -13%.
`Cl.OC1CCCCC1N1CCC(c2ccccc2)CC1` (racemic) has an inhibition of -13.4%.
For `CC(NC(C)(C)C)C(=O)c1cccc(Cl)c1.Cl` (stereo not shown), the inhibition was -15%.
With `Cl.O.Oc1ccc2c3c1O[C@H]1c4[nH]c5ccccc5c4C[C@@]4(O)[C@@H](C2)N(CC2CC2)CC[C@]314` the inhibition was -7.6%.
With `CCCCCCCCCOc1ccc2[nH]cc(CCN)c2c1` the inhibition was -9.7%.
For `C=C(C)CN1CC[C@]23c4c5ccc(O)c4O[C@H]2c2[nH]c4ccccc4c2C[C@@]3(O)C1C5.Cl.O`, the inhibition was -3.4%.
`C[N+]1(CCC(C(N)=O)(c2ccccc2)c2ccccc2)CCCCC1.[Br-]` has an inhibition of -16.1%.
`COc1ccc2[nH]cc(C3=CCNCC3)c2c1.O=C(O)CCC(=O)O` has an inhibition of -13.8%.

Other studies, line by line
With `CO[C@@H]1[C@@H](OC(N)=O)[C@@H](O)[C@H](Oc2ccc3c(O)c(NC(=O)c4ccc(O)c(CC=C(C)C)c4)c(=O)oc3c2C)OC1(C)C` the surviving fraction was 1.26 and 1.13 and 1.16 (RPE-1 wild type; 100 µM; relative to: untreated).

Excerpt of the above (study 1):
`CC(C)[C@H](N)C(=O)OCC(CO)OCn1cnc2c(=O)nc(N)[nH]c21` (stereo partly shown) has a GFP-positive cells of 95.3%.
The GFP-positive cells of `NC(=O)c1cn(Cc2c(F)cccc2F)nn1` is reported as 98.6%.
For `CC(=O)c1ccc(S(=O)(=O)NC(=O)NC2CCCCC2)cc1`, the GFP-positive cells was 86.3%.
With `OC(CCCN1CCCCC1)(c1ccccc1)c1ccccc1` the GFP-positive cells was 93%.
The GFP-positive cells of `CCCC(=O)O[C@]1(C(=O)CO)CC[C@H]2[C@@H]3CCC4=CC(=O)CC[C@]4(C)[C@H]3[C@@H](O)C[C@@]21C` is reported as 81.3%.
`O=C(CCCCC(=O)Nc1c(I)cc(I)c(C(=O)O)c1I)Nc1c(I)cc(I)c(C(=O)O)c1I` gave a GFP-positive cells of 88%.
`Cc1ccc(N(CC2=NCCN2)c2cccc(O)c2)cc1` gave a GFP-positive cells of 104%.
`CO[C@H]1/C=C/O[C@@]2(C)Oc3c(C)c(O)c4c(c3C2=O)C2=NC3(CCN(CC(C)C)CC3)NC2=C(NC(=O)/C(C)=C\C=C\[C@H](C)[C@H](O)[C@@H](C)[C@@H](O)[C@@H](C)[C@H](OC(C)=O)[C@@H]1C)C4=O` has a GFP-positive cells of 118%.
The GFP-positive cells of `CCS(=O)(=O)CCn1c([N+](=O)[O-])cnc1C` is reported as 86.2%.
